Results of several laboratories.
Parts stem from different laboratories: compare values within a part only. Changes are numbered by the printed parent chain.

Study 1 — read-out: binding; technique: phage display NGS; form: peptide; notes: panning round 2; baseline: input library; measurement: minimum log2 enrichment ratio
Target: UDP-N-acetylglucosamine--peptide N-acetylglucosaminyltransferase 110 kDa subunit (OGT, Homo sapiens, UniProt O15294)
Chain of UniProt O15294 (whole entry, looked up): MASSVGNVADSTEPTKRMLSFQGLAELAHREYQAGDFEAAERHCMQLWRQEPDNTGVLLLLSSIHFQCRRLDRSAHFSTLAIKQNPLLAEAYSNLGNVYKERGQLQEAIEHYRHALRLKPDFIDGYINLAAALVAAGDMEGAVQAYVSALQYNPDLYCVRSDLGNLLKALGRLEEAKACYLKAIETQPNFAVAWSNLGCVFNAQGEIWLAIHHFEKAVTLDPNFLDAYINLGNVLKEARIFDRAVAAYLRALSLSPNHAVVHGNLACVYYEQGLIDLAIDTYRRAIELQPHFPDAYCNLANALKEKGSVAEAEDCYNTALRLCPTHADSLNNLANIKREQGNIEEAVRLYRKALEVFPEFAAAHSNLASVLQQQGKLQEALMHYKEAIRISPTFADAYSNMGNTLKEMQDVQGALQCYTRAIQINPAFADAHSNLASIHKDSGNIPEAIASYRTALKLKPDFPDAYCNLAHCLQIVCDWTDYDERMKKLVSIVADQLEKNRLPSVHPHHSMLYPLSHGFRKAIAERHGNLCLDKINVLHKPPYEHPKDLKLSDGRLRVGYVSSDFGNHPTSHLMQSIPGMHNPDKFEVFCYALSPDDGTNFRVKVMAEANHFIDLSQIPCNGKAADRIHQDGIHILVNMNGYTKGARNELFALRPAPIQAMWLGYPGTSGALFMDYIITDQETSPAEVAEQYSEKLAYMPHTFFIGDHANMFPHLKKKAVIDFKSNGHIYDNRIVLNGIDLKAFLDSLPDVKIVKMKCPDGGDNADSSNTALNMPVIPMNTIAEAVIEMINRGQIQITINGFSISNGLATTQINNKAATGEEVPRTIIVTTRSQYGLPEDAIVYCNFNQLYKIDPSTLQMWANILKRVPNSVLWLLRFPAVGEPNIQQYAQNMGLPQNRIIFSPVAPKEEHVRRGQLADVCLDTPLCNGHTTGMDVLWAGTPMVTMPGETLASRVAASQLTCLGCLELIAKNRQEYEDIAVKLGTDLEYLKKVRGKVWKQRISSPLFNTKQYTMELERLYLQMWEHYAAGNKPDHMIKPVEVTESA
Sequence = RMDHTQRPLWHQHHN; value = 2.74
Sequence = QQFSKLFPPKYTIDF; value = 6.73
Sequence = MHHAFEGDHVWMHAG; value = 2.05

Study 2 — technique: RNA Bind-n-Seq; form: RNA; medium: in vitro; concentration: 20 nM; notes: 6-mer, flanks averaged, single round; with: 150 mM KCl; baseline: input library; reading: higher = stronger binding; measurement: 6-mer enrichment (R)
Target: TAR DNA-binding protein 43, full length, His tag (TARDBP, Homo sapiens, UniProt Q13148, residues 1-414)
Oligonucleotide = UACUGU; value = 0.632
Oligonucleotide = CAACGG; value = 1.09
Oligonucleotide = GUAUUC; value = 0.594
Oligonucleotide = UACCCG; value = 0.649
Oligonucleotide = GGAGAG; value = 3.9
Oligonucleotide = GGACCG; value = 1.8
Oligonucleotide = UUAGCU; value = 0.594
Oligonucleotide = UGGCUG; value = 1.34

Study 3 — target: CCNA2, cyclin fold, Cln2 fusion (human); technique: yeast growth competition, sequencing; medium: yeast; notes: strong parent motif; baseline: not given; reading: higher = stronger binding; measurement: normalised enrichment score; starting sequence: viral docking peptide; KGVKRKLFAEDSS
Change = KGVKRKLIAEDSS [F8I]; value = 1.42
Change = KGIKRKLFAEDSS [V3I]; value = 5.39
Change = KGVKRKLFAEFSS [D11F]; value = 6.37
Change = KYVKRKLFAEDSS [G2Y]; value = 5.68
Change = KGVSRKLFAEDSS [K4S]; value = 6.33
Change = KGVNRKLFAEDSS [K4N]; value = 5.79
Change = KGVKRMLFAEDSS [K6M]; value = 5.85
Change = KGVKRKLGAEDSS [F8G]; value = 0.792
Change = KGVKRKLFAEQSS [D11Q]; value = 5.97
Change = KGVKRKLKAEDSS [F8K]; value = 1.07
Change = KGVKRKLFAEGSS [D11G]; value = 6.49
Change = KGHKRKLFAEDSS [V3H]; value = 3.12
Change = KGVKRKYFAEDSS [L7Y]; value = 0.622
Change = KGVKRKMFAEDSS [L7M]; value = 1.09
Change = KGVKRKLFAEVSS [D11V]; value = 6.02
Change = KGVKWKLFAEDSS [R5W]; value = 0.856
Change = KGVKRKLFAYDSS [E10Y]; value = 5.08
Change = KGVKDKLFAEDSS [R5D]; value = 0.326
Change = KGVKRKLFASDSS [E10S]; value = 5.81
Change = KGVKRQLFAEDSS [K6Q]; value = 6.65
Change = KGVKRKPFAEDSS [L7P]; value = 0.223
Change = KGVKRKLPAEDSS [F8P]; value = 0.293
Change = KGVDRKLFAEDSS [K4D]; value = 1.3
Change = KGVKRKLDAEDSS [F8D]; value = -0.197
Change = KGVKRKLFAEDWS [S12W]; value = 6.26

Study 4 — technique: protein-binding microarray; form: double-stranded DNA, one strand shown; medium: in vitro; concentration: 0.8 µM; notes: whole 60-bp probe, no competitor; reading: higher = stronger binding; measurement: fluorescence intensity
Target: Centromere-binding protein 1, full length, N-terminal tag (CBF1, Saccharomyces cerevisiae, UniProt P17106, residues 1-351)
Chain of UniProt P17106 (whole entry, looked up): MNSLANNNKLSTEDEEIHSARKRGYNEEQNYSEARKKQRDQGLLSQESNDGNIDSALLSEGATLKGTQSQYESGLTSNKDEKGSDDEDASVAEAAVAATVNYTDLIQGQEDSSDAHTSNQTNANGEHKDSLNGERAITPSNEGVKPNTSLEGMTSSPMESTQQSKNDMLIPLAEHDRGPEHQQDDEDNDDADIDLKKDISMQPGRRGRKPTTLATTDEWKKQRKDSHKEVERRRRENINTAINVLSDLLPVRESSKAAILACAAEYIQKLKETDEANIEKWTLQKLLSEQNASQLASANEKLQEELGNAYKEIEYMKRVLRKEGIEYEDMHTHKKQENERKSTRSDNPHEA
Oligonucleotide = CTAGATAATAATTGTGACCCCATCATGGAAATGTTCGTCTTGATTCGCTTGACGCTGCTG; value = 552 a.u.
Oligonucleotide = CTAAGACTAACCCAAAGTGTGCGCAATAAACTCTTCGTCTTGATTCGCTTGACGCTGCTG; value = 527 a.u.
Oligonucleotide = GAAATATAATTTGTCCACGTGATATTTCACAGATAGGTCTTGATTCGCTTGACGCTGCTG; value = 10700 a.u.
Oligonucleotide = GAAGATTGCCCTTCTCATCTGACCGCTACCCATTAGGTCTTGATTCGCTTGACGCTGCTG; value = 572 a.u.
Oligonucleotide = CTAATCCTTTTTTAGCACGTGAACGGTAATAACTTCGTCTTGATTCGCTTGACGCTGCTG; value = 11000 a.u.
Oligonucleotide = GAAATTATATTGTATCGTGTCACCCCCATGTCATAGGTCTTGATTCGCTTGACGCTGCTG; value = 584 a.u.
Oligonucleotide = GAACTCAGTCTAGTGCACGTGAGATTACACTGCTAGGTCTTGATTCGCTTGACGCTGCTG; value = 3630 a.u.
Oligonucleotide = CTACAACAAGGTTGTCATGAGGAGTTACAGATATTCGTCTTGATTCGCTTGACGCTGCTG; value = 530 a.u.

Study 5 — technique: DHFR PCA, deep sequencing; medium: yeast; with: (+)-ABA 58 µM; baseline: wild-type fitted maximum; reading: higher = stronger binding; measurement: relative binding score
Target: ABI1, truncated, D143A, DHFR fusion (Arabidopsis thaliana)
Notes: methotrexate growth selection, single substitutions
Starting sequence: PYL1, truncated, DHFR fusion (Arabidopsis thaliana); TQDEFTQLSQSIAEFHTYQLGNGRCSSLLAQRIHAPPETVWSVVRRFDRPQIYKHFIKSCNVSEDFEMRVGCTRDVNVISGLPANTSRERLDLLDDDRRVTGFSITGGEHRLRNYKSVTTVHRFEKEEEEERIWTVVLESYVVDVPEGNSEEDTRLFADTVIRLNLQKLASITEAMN; partner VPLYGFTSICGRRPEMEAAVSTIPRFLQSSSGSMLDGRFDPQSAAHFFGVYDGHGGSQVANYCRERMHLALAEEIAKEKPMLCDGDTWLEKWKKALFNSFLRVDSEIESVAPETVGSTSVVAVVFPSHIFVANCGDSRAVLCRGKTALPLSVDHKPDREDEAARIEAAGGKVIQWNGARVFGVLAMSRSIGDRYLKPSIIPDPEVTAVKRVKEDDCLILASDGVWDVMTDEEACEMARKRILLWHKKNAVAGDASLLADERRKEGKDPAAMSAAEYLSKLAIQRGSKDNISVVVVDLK
Change = K168Y; value = 46.3%
Change = T17E; value = 70.2%
Change = H34D; value = 82.3%
Change = S104Q; value = 37.5%
Change = T173Y; value = 22.3%
Change = N114R; value = 61.4%
Change = D144H; value = 33.9%
Change = S9E; value = 94.8%

Mixed results
Starting sequence: PafA, mature enzyme, eGFP fusion (Elizabethkingia meningoseptica, UniProt Q9KJX5); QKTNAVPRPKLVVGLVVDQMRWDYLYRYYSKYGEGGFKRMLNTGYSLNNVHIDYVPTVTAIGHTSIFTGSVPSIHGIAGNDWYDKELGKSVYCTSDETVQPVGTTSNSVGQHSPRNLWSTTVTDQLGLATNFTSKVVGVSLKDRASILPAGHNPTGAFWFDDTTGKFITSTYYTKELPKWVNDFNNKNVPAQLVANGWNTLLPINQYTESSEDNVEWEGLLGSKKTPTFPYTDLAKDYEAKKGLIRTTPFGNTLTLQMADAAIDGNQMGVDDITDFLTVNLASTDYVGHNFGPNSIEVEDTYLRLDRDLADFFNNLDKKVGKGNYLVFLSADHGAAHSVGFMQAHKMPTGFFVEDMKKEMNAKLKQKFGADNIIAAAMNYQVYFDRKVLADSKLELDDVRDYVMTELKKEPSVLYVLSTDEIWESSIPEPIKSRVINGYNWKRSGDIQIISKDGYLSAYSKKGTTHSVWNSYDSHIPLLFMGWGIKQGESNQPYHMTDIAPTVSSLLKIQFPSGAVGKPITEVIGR
Change = I509G; target = tungstate, free oxyanion; assay = microfluidic competitive inhibition; test system = in vitro, cell-free expressed; setting = not given, derived from inhibition constants, unchanged parent 2230 nM; scale = lower = stronger binding; measurement = oxyanion analog dissociation constant; value = 1.06 µM

Some of these lines once more (study 1):
Sequence = RMDHTQRPLWHQHHN; value = 2.74
Sequence = QQFSKLFPPKYTIDF; value = 6.73
Sequence = MHHAFEGDHVWMHAG; value = 2.05
